Assay results from different studies.
A part holds a random share of what one study measured.

Sample 1
Target: Histone acetyltransferase KAT6A, winged helix 1, GST fusion (KAT6A, Homo sapiens, UniProt Q92794, residues 1-85)
Technique: protein binding microarray
Form: double-stranded DNA, one strand shown
Sample: in vitro
Concentration: not given
Setting: 8-mer, flanks averaged, mean of 2 arrays, mostly near background
Reference: not given
Reading: higher = stronger binding
Target sequence (chain): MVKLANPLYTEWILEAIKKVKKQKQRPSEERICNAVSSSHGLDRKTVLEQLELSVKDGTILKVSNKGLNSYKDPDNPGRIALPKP
Oligonucleotide	E-score
CGGCCGGC	0.457
ATGGCAGA	-0.03
ACACCTGA	-0.00212
CTCAGGGA	-0.263
GGTCGACA	-0.0411
CGCAAGCC	0.214
ATAATGCA	-0.0703
GATGAGAC	0.0277
ACGGAGTA	0.169
CAAGTCAA	-0.222
CACAGAAG	-0.216
AGTTTGGC	0.00886
GACAGTGA	-0.0809
CGGGATTC	0.236
ATCAACCA	-0.104
AGATCTCC	-0.153
ATTCGTGA	-0.122
GATCTTAC	0.0434
CAATGCCC	0.0703

Sample 2
Target: Interferon regulatory factor 7, full length, phosphomimetic (IRF7, Homo sapiens, UniProt Q92985, residues 1-503, S101K/S471D/S472D/S475D/S476D/S477D/S483D/S484D/S487D)
Technique: protein-binding microarray
Form: double-stranded DNA, one strand shown
Sample: in vitro
Concentration: 250 nM
Setting: 60-bp whole probe
Together with: salmon DNA 0.4 mg/ml
Reference: random background probes
Reading: higher = stronger binding
All sequences stand within: GCCTAGCAC … GTCTTGATTCGCTTGACGCTGCTG
Construct (chain): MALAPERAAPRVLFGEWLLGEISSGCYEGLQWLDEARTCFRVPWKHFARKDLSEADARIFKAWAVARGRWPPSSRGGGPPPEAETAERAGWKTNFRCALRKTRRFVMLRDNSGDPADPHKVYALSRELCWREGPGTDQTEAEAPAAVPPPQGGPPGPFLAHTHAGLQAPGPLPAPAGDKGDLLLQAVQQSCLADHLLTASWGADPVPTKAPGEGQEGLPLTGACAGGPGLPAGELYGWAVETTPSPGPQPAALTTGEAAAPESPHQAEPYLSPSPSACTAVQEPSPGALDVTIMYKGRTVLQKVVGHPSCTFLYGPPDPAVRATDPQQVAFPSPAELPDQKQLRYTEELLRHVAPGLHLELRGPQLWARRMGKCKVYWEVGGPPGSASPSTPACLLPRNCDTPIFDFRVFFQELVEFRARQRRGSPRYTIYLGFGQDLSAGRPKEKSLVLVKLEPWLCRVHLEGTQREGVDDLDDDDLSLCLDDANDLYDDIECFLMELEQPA
Oligonucleotide	log fluorescence [z-score]
TTAGGTTTCCTACTGCTCTAGTGCTAG	1.21
TCATCTAAAAAGTCTCTGACTGTGCTA	0.231
TTAGAACTGGGGGCTGGATTAGTGCTA	0.762
TTAGAGTTCGGGACTGGATTAGTGCTA	-0.376
TTAGGTCTCGGGACTGGGTTAGTGCTA	0.481
TTAGGTTTCGACTTTCTGTTAGTGCTA	10.2
TTAGATCTCAGATTGGATTAGTGCTAG	-0.008
GACGGACTGCTCTTCCTGACGTGCTAG	-0.476
TCATTTTTTTTTTCCCTACTGTGCTAG	1.42
GACGGTTTCGTTCTCCTGACGTGCTAG	11
TCCATTTCTGTTTTTGCTTTGTGCTAG	2.12
TCAGGTTTCCTTTCCCTTTAGTGCTAG	4.8
GACGCTTTCAGTTCCGAGACGTGCTAG	1.13
TTAGGTCTGCTACTGCTTTAGTGCTAG	-0.503
GACGGACTGGACTATCTGGACGTGCTA	-0.637
TTTGCTTTCCTTTGCTTTCTGTGCTAG	0.933
TCATTTAGTAGTTTCTAACTGTGCTAG	2.05
GACGAACTGTGTTTCGAGACGTGCTAG	0.649
ATAGATATGCCAAATCTGTGTGTGCTA	-0.242
GACCGACTGGGTTTCGGGACGTGCTAG	2.27
GAAGAACTGGGGACTGGAGACGTGCTA	-0.821

Sample 3
Target: TAR DNA-binding protein 43, full length, His tag (TARDBP, Homo sapiens, UniProt Q13148, residues 1-414)
Technique: RNA Bind-n-Seq
Form: RNA
Sample: in vitro
Concentration: 20 nM
Setting: 6-mer, flanks averaged, single round
Together with: 150 mM KCl
Reference: input library
Reading: higher = stronger binding
Oligonucleotide	6-mer enrichment (R)
ACGCUA	0.626
UUACGC	0.616
AUGGUA	0.843
AUGGUC	0.721
AUCGCA	0.635
UCUUUC	0.56
UCUAGG	0.886
GACCCG	0.855
CUAAAA	0.638
UUAGCC	0.626
GUGUUC	0.786
AGCCGA	0.832
UCGUUU	0.562
ACUUCU	0.552
UAUCGC	0.593
UUUAUC	0.591
CUGCCA	0.657
GGCAAC	1.12
AGGAUA	0.781
CGCCUU	0.654
CAUGUG	0.988
UUCAUA	0.549

Sample 4
Target: RNA binding protein fox-1 homolog 2, RRM domain, GST-SBP tag (RBFOX2, Homo sapiens, UniProt O43251-10, residues 100-194)
Technique: RNA Bind-n-Seq
Form: RNA
Sample: in vitro
Concentration: 365 nM
Setting: natural RNA segment, single round, ends assumed
Reference: no-protein control
Reading: higher = stronger binding
All sequences stand within: GGGAGUUCUACAGUCCGACGAUC … UGGAAUUCUCGGGUGCCAA
Residues (chain): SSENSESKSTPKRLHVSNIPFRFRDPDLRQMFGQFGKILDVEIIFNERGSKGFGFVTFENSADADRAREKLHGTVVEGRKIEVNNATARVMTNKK
Oligonucleotide	RBNS enrichment (R)
CCCCCAGAUAUCCUCACCUCAGGGCCUCCUUUUUUUGCAAACUCCUCCCCUCCCCCGAGGGCAGACCCAGCCAGCUGCUAAGCUCUGCAGCUCCCCAGUGGACAGUGUCA	0.457
AUUCCCAGCAAGUCAGUGUCUCACAAGGGCACUGGCUAAUUACUCUUCUGUCCGCGUUGCUGAUGUCCUGUCCCCAGCCCCUGUCCAUCUCCCCCACACUCCCAUCACCU	0.557
GUCUCGGGACUUGGGUCCCGGAGUGCCCGUGAAGCGUGUUUUUGCUCCUGAGGUGCAUUUUCUCAUCAUCCUUGCUUUACCACAAUGAGCAAUGAGGUCGGGUUUUAUAU	0.306
UAUUAGCAUUAGUGUGCACAGGGUACUUUUGAAAUGGUUUUGGAUAGAUUUACAAUAUGUAAGAUUAAGCUGUUGAUUUCAAUAGAGCUGAGAGCUUUUAGUAAAAAUAG	0.957
GGUGCCCAAAUUGCCAGCUGGCAAAAUGAAUAACCGUGAUCUCAAACCCCAGCCUGAUAUAGUCUUGCUUCCGUUGCCCACUGCCUAUGAGCUAGACAGCACCAAACUGA	0.518
GUCCCCCAGGUGUCCAUCUCCUAUCUUUUUGUUCCAAUCUUCUGUGAGUUCCAGCUAGCAGGCUUUACAUCUGGGGAAAGGAAAACCAGGGGUUUUAGCUCUGUUCUCUG	0.741
UUUCAUUUUUUACAACUGGACCUCCACCCACAACUUCCCCAGCCCAGCUGGGCUCCCUUUGUCAGAGUCAAUGGAUGAUGCUUCCAGGACAAAUCGGCUUCCUCUCCCCA	0.853
AGGCCCACUCCAGGAGGUGGGCCUCUGGAAUUACAUCUCUACCCUACCCACUUUGGAACCCACUUUCCCCAGUCUCUAGGUCCUGAUGCCUAGUGUGAUGAAGACCUUGC	0.364
GACUCUUGGGCUGCGAUGCAUCACCCUUGUUACCCUGCAGUGGCUCUUACAAAACCACUUCCUCCCCACCCGCUUGCUGCCAAGGGGCGGGUUGCGGUGCAUGAAACCGC	1.79
CCUCUUUAUCCAACAGAUAAAAGAAGGAACAUUGCAGAGCUAAGCAGAGGUGGCACGGAGGCAAUUGGGGAGUUCUUACUGAAUCCUCCUUUUCCACCCCACACCCUGAA	0.168
AUGUGUUAAGAGUGAGUGGUACACUGGGGUUUAUUUCUGUGGCCUGGGAAGGAAGAAACCAUCACGAGGAUUGGUGAACAAAGUGUGCUCACUGGGUUUCUGGAUUAUUC	1.12
UGGAGUAUUUGCUUCUUUUGUUCGCGCAGACAUGUGAAGGAGUGUCUUAAAACAAUACAUGUAUUUAAAAUAAUGCAGUCAUAACCUAAUUAAUGGAUCAUCAGCUUGAC	0.494

Sample 5
Target: Prothrombin, mature alpha-thrombin (F2, Homo sapiens, UniProt P00734)
Technique: aptamer microarray, sandwich
Form: DNA with 2'F-ANA
Sample: in vitro
Concentration: 200 nM
Setting: whole 15-mer aptamer, many near background
Together with: Cy3 exosite-II aptamer, 400 nM
Reading: higher = stronger binding
Oligonucleotide: GGTTGGTGTGGTTGG
Modification	mean fluorescence intensity [a.u.]
2'F-ANA at 3 4 6 7 10 14 15	204
2'F-ANA at 2 3 7 8 9 10 11	404
2'F-ANA at 1 4 8 12	343
2'F-ANA at 1 3 8 9 10 12 15	117
2'F-ANA at 3 8 9 11 13 14	599
2'F-ANA at 1 2 3 5 6 7 14 15	48.4
2'F-ANA at 1 6 8 10 13 14 15	49.4
2'F-ANA at 1 4 6 7 10 11 14 15	46
2'F-ANA at 2 3 5 7 10 13 14	48.5
2'F-ANA at 2 4 9 10 11 12 15	119
2'F-ANA at 4 5 6 8 9 10	93.1
2'F-ANA at 1 2 3 4 5 7 9 13 15	59.5
2'F-ANA at 2 7 12 13 14 15	280
2'F-ANA at 3 4 6 7 9 10 11 13 15	181
2'F-ANA at 2 3 4 5 6 10 11 15	53.5
2'F-ANA at 5 7 8 9 10 11 12 15	50.1
2'F-ANA at 3 5 8 12 13 15	225
2'F-ANA at 1 2 4 5 8 10 11 12 13 14	45.6
2'F-ANA at 2 4 5 6 7 9 12 14	49.3
2'F-ANA at 1 3 4 6 8 9 10 11 14 15	52.7
2'F-ANA at 3 6 7 8 10 11 12 14 15	366
2'F-ANA at 1 3 7 8 10 11 13 15	77.9
2'F-ANA at 1 4 7 8 9 11 12 13 15	168
2'F-ANA at 1 3 7 8 9 12 14	152
2'F-ANA at 3 5 8 13 14 15	73.2

For quick reference, copied from above (sample 1):
Oligonucleotide	E-score
CGGCCGGC	0.457
ATGGCAGA	-0.03
ACACCTGA	-0.00212
CTCAGGGA	-0.263
GGTCGACA	-0.0411
CGCAAGCC	0.214
ATAATGCA	-0.0703
GATGAGAC	0.0277
ACGGAGTA	0.169
CAAGTCAA	-0.222
CACAGAAG	-0.216
AGTTTGGC	0.00886
GACAGTGA	-0.0809
CGGGATTC	0.236
ATCAACCA	-0.104
